# Measurements collected from several papers.
# Parts stem from different laboratories: compare values within a part only.

# Set 1
# Target: Interferon regulatory factor 3, full length, phosphomimetic (IRF3, Homo sapiens, UniProt Q14653, residues 1-427, S386D/S396D/S398D/S402D/T404D/S405D)
# Method: protein-binding microarray
# Molecule type: double-stranded DNA, one strand shown
# Medium: in vitro
# Concentration: 2540 nM top
# Setting: 60-bp whole probe
# Together with: salmon DNA 0.4 mg/ml
# Relative to: random background probes
# Reading: higher = stronger binding
# All sequences stand within: GCCTAGCAC … GTCTTGATTCGCTTGACGCTGCTG
# Construct (chain): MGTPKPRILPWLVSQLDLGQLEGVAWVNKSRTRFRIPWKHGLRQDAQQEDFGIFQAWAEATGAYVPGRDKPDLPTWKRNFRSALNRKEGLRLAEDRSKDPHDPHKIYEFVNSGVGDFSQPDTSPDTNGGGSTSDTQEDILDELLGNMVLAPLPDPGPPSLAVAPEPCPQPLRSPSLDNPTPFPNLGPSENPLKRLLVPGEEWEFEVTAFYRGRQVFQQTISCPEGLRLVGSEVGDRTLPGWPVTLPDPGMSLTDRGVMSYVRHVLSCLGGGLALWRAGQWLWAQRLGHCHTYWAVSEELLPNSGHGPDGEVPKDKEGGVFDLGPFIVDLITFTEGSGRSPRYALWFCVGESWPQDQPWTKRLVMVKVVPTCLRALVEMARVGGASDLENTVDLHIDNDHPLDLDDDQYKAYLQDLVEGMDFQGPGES
Strand,fitted relative affinity
GACGATATCGGGACTGGTGACGTGCTA,0.000221 z-score
TCAGTTTCTCCTTTCGGACTGTGCTAG,3.56 z-score
TTAGGACTGCTTCGCCTTTAGTGCTAG,-0.479 z-score
TTAGATTTCAGACTGGTTTAGTGCTAG,0.618 z-score
GACGGTATCGAATATCGGGACGTGCTA,1.16 z-score
TCAAATTTTCAATTCCTACTGTGCTAG,1 z-score
AGAATCTTAGATATTAAACTGTGCTAG,0.0813 z-score
TCAAGCCTCTGCATTCCCACTGTGCTA,-0.781 z-score
TTAGATATCAGTTTCGATTGGTGCTAG,3.97 z-score
TTAGATTTCAGGTTCGATTAGTGCTAG,1.58 z-score
GACGATTTCAGTATCGAGAAGTGCTAG,2.23 z-score
TCATACTTCACTCTCTGACTGTGCTAG,0.535 z-score
ATGGCTTTGCCTTTTGCTTTGTGCTAG,-0.194 z-score
ATACTGAGAAAGCACTGGACGTGCTAG,-0.145 z-score
TTATCAATCATTTTAGTTTTGTGCTAG,1.16 z-score
GACGGTTTCGGGTCTCGGGACGTGCTA,6.02 z-score
TCATTTTTCAAGAAACAGACTGTGCTA,1.35 z-score
TCATTTCCCAAGTTTATAACTGTGCTA,2.46 z-score
TTAGGTTACGGACTGGGTTAGTGCTAG,0.115 z-score
CAACCAATCATTTTTGCTTAGTGCTAG,0.964 z-score
TCACATTTATATCTTTGACTGTGCTAG,1.1 z-score
AGGCTTTTTTTTTTTTTTTTGTGCTAG,0.297 z-score
GACGGTTTCGGACTGGGAACGTGCTAG,4.51 z-score
TGGGAAATTCCTCTGAGGCAGTGCTAG,-0.174 z-score
TTAGGACTTGGGTATCGGTTAGTGCTA,0.178 z-score

# Set 2
# Target: Sal-like protein 4, full length isoform A (SALL4, Homo sapiens, UniProt Q9UJQ4, residues 1-1053)
# Sequence of UniProt Q9UJQ4 (whole entry, looked up): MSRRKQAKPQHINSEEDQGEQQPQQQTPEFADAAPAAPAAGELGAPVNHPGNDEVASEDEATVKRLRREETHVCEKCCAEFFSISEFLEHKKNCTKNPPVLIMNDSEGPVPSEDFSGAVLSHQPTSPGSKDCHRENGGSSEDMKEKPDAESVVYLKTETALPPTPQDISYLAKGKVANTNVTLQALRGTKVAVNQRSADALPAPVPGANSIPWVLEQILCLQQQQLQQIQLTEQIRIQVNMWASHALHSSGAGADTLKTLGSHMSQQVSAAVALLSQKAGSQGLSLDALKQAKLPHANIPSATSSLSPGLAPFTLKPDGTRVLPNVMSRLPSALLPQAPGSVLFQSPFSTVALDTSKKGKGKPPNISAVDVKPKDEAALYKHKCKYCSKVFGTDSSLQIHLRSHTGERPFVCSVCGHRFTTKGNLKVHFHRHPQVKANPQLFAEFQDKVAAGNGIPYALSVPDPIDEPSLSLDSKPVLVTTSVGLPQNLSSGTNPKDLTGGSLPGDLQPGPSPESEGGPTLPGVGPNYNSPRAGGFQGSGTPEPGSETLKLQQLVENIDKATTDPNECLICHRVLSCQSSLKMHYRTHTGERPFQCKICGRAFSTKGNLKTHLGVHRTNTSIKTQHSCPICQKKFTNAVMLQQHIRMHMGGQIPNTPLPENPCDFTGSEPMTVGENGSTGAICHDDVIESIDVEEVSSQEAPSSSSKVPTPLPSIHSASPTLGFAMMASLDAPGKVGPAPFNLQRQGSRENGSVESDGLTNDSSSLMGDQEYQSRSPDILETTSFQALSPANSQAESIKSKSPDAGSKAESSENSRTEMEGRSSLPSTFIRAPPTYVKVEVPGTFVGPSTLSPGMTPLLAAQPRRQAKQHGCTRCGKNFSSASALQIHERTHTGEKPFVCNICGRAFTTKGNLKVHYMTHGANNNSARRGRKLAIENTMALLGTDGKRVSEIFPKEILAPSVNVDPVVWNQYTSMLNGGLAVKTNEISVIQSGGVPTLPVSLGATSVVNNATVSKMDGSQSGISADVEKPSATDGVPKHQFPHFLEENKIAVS
# Method: universal PBM
# Molecule type: double-stranded DNA, one strand shown
# Medium: in vitro
# Concentration: 600 nM
# Setting: 8-mer, flanks averaged, mean of replicates
# Reading: higher = stronger binding
Strand,E-score
CTGAATCC,-0.016
CAAGGATC,0.0864
CCGGGAAG,-0.238
ATCTCCCG,-0.165
AATTAGAT,0.27
CGTCGGGC,-0.345
GCAGGGGA,-0.237
AACCCTTC,0.149
TAGAAGAA,0.141
ATCAGCGA,-0.0341
GTAACGAC,-0.28
CTTATTTC,0.293
CCAAGTTA,0.195
GCTCTCTA,-0.0226
CAGGTACA,-0.0613
CATCGGAG,-0.128
AAAAGGGG,-0.136
ACGCTGCC,-0.331
ATGTCTGG,0.0582

# Set 3
# Target: RNA binding protein fox-1 homolog 2, RRM domain, GST-SBP tag (RBFOX2, Homo sapiens, UniProt O43251-10, residues 100-194)
# Method: RNA Bind-n-Seq
# Molecule type: RNA
# Medium: in vitro
# Concentration: 365 nM
# Setting: natural RNA segment, single round, ends assumed
# Relative to: no-protein control
# Reading: higher = stronger binding
# Target sequence (chain): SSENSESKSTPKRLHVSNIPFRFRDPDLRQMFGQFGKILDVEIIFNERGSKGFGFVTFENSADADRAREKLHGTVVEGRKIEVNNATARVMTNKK
Strand,RBNS enrichment (R)
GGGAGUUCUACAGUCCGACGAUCACGUGUAAAUAAGAACACACAUAGUUAACUAAAGAACCAGGCAGUCCCCUGCUUAACUGCAGCCUGGAUAGCUGAGCUGCUGCUGAGGGCACGCCGUGCGCGACGGCUGAUGGAAUUCUCGGGUGCCAA,0.322
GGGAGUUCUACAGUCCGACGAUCGGAGCUGGAGCAGCAGCAGUUGAUGAGUUCUGUAAGCAGAUGCAGCCGCCUGGGGAGUGAGCCAGCCUGCAUCCCCGGCAGAGGAACUGGUGCCUGCCUUUGUCUGUGAGUGGAAUUCUCGGGUGCCAA,3.61
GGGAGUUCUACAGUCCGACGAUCCGGGAACUUGUUAGAAAUGCACAUUCUCAGGCCACUCCCUAGACCUACUGAAUCAGAAACCCUGGGGUUGGAGCUCAGCAAUUACCCUGCAGGUAAUUCUGAUGCAUGCUUGGAAUUCUCGGGUGCCAA,3
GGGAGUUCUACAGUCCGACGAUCACCUUUCUGUUCUGUGGACUCGGUGCAGGUGGGUGGGGUGGUAAACAGUGGAAGAGCUCCUCCCCCCAAUUUUAUCCCAUUUUUUAAAAACCUCUCUCAACCAGUGAAACUGGAAUUCUCGGGUGCCAA,0.88
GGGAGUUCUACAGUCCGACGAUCAGAUGCUGAGGUACUGCCUCGCCUCAUGGGUGUGUCAGGUUUCUACACCUGUGUGCUUUUCUAGAAAAAGCUGCUAAUGGCUGCAACACUAAUCAUGAACACGUUUUUGCUGGAAUUCUCGGGUGCCAA,0.312
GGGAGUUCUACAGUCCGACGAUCCCUCCCCUGGGAGUUAGUGAUUUGGGGGACCAGCCUCACUGCAGACUCCAGGCUCUGACAGGUAGUGGCCUGGGCCCAGCUGCAAGCCAUGCUCCCCUGAGCUAUAACCCUGGAAUUCUCGGGUGCCAA,0.334
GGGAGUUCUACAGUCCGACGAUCCCCAUCCCUAAACGAUGUUGUUUUGUUUUUAUUUUUUUCCUUAAUUUGCACGAAAACAGAAAUUCCAUAUCAAUGUGCCUUGCCCUGGAUAGUGAUUAUUUGUGGAAUUGUGGAAUUCUCGGGUGCCAA,10.3
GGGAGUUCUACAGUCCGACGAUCAAAAGGCUUGUAUGUGUUAUCAUUUAAGGUCACUGUUCCCAAUUAAAAGCCUUCAACCAUGAUUUUCAUCAUUGGAAAUAGAAUUGAAUGGCCACCCUGUGUUGUGGGAAUGGAAUUCUCGGGUGCCAA,0.722
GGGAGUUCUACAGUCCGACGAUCUAUGUUUCCCCCCUUUUCCGAUAGAACUAUUGGGGUGAGGAUAAGGGUGGGGGGAAAUCACUGUUUGUUUUUAAAAGCAAAUCUUUUGUAAACAGAAUAAAAGUUCCUCUUGGAAUUCUCGGGUGCCAA,0.479
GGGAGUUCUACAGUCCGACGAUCAUCUUUGUAAAAUGCGCAAGUGCAAUAAUUUAAAGAGGUCUUAACUUUGCAUUUAUAAAUUAUAAAUAUUGUACAUGUGUGUAAUUUUUUCAUGUAUUCAUUUGCAGUCUUGGAAUUCUCGGGUGCCAA,0.772
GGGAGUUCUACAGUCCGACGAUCUCUUUUUGGUCCAUUCAUUCACUGUUUAAAAGUUUAUGAUUCUUCCAAAAAUGAAUAUAGUUUCCUUUUUCAAAUCUGAAGGCAUGUGGGAAGCAGUGAGCAAAACCUGUUGGAAUUCUCGGGUGCCAA,5.36
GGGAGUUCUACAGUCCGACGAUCAUAUAGCUACCUGUCUAGAUCUGCAUCUGUGUGCCUAUGUAUAUAUUAUACACACACAGAGGCACUCACCGCUGGCUCUCCUUUCCUUGGGGAUUGGGGUGGGGGUGAUAUGGAAUUCUCGGGUGCCAA,0.258

# Set 4
# Target: Histone acetyltransferase KAT6A, winged helix 2, GST fusion (KAT6A, Homo sapiens, UniProt Q92794, residues 85-181)
# Method: protein binding microarray
# Molecule type: double-stranded DNA, one strand shown
# Medium: in vitro
# Concentration: not given
# Setting: 8-mer, flanks averaged, mean of 2 arrays, mostly near background
# Relative to: not given
# Reading: higher = stronger binding
# Construct (chain): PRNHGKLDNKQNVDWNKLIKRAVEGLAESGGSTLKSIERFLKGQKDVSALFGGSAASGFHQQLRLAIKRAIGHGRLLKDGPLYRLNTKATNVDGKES
Strand,E-score
AATCTTAC,-0.0761
CCTTCGCG,0.111
ATAATGGC,0.0524
TGATTGCA,0.01
ACCCTCCT,-0.0555
TCACGTCA,-0.0511
TCCGAAAA,-0.0422
AAACAGCG,0.0289
ATCAGGAT,0.146
CCTTCAAG,-0.0181
AACCCATT,-0.0974
CGACCTCG,0.194
ATATCACA,-0.143
GGTTGGAA,0.0674
ATGTTCAG,-0.191
CGACCTTA,-0.0514
CAACTTAG,0.166
GCTGGTAC,0.0214
GCAGTACA,0.0486
AGGTAGTA,-0.146
CAGGTCCA,-0.0979
CCTCCGAA,-0.0185
ATACTTCA,-0.0577

# Set 5
# Target: Prothrombin, mature alpha-thrombin (F2, Homo sapiens, UniProt P00734)
# Method: aptamer microarray, sandwich
# Molecule type: DNA with 2'F-ANA
# Medium: in vitro
# Concentration: 200 nM
# Setting: whole 15-mer aptamer, many near background
# Together with: Cy3 exosite-II aptamer, 400 nM
# Reading: higher = stronger binding
# Strand: GGTTGGTGTGGTTGG
Modification,mean fluorescence intensity
2'F-ANA at 3 4 6 9 10 12 13,247 a.u.
2'F-ANA at 2 4 5 6 7 8 9 11 12 14 15,96.8 a.u.
2'F-ANA at 3 5 6 8 14 15,87.3 a.u.
2'F-ANA at 4 5 6 9 12 13,88.9 a.u.
2'F-ANA at 2 3 6 7 8,835 a.u.
2'F-ANA at 3 4 8 11 12 15,885 a.u.
2'F-ANA at 3 4 5 8 10 12 14,49.6 a.u.
2'F-ANA at 1 4 5 8 11,51.1 a.u.
2'F-ANA at 2 4 6 8 10 12 14,61.1 a.u.
2'F-ANA at 3 5 8 11 12 13 14,71.6 a.u.
2'F-ANA at 2 6 8 11 12 13 14 15,117 a.u.
2'F-ANA at 2 3 4 7 8 9 10 11 15,219 a.u.
2'F-ANA at 2 4 5 6 8 11 12 14 15,60 a.u.
2'F-ANA at 3 9 12 14 15,661 a.u.
2'F-ANA at 6 11 13,383 a.u.
2'F-ANA at 3 7 8 9 12 13 15,1310 a.u.
2'F-ANA at 4 5 6 12 13 15,87.6 a.u.

# A few entries again (set 2):
Strand,E-score
CTGAATCC,-0.016
CAAGGATC,0.0864
CCGGGAAG,-0.238
ATCTCCCG,-0.165
AATTAGAT,0.27
CGTCGGGC,-0.345
GCAGGGGA,-0.237
AACCCTTC,0.149
TAGAAGAA,0.141
ATCAGCGA,-0.0341
GTAACGAC,-0.28
CTTATTTC,0.293
CCAAGTTA,0.195
